# Published values from different studies.
# Each line is one published result; not all experiments were run side by side. Several values in a cell are separate wells, animals, samples, runs or records. ± gives the spread as reported.
SMILES,assay,test system,setting,how to read,measurement,value
C#Cc1c(F)ccc2cc(O)cc(-c3ncc4c(N5CC6CCC(C5)N6C(=O)OC(OC(=O)CCC)C5CCCCC5)nc(OC[C@@]56CCCN5C[C@H](F)C6)nc4c3F)c12 (stereo partly shown),item: prodrug,mouse whole blood,1 µM,,t1/2,4.59 min
CC(CCC(=O)NCC(=O)O)C1CCC2C3C(O)CC4CC(OC5OC(C(=O)O)C(O)C(O)C5O)CCC4(C)C3CCC12C (stereo not shown),,"men, T/C genotype, plasma","dose not given, geometric mean",,plasma concentration,69.9 ng/mL
N#[11C]c1ccc(-c2csc(NN=C3CCCC3)n2)cc1,,"C57BL/6 mouse, male","intravenous, 3 MBq, 1 min",,uptake in stomach with contents,2.42 ± 0.52 %ID/g
CCCCC[C@H]1C(=O)N[C@H](C)C(=O)N(C)[C@@H](CCCCC)C(=O)N[C@H](C)C(=O)N(C)[C@@H](CCCCC)C(=O)N[C@H](C)C(=O)N(C)[C@@H](CCCCC)C(=O)N[C@H](C)C(=O)N1C,PAMPA,,"500 µM, pH 7.4, UV/ELSD/MS detection",,log Papp,-6.15
CSCC[C@H](N)C(=O)N[C@@H](C)C(=O)N[C@@H](CCCNC(=N)N)C(=O)N[C@@H](CCCNC(=N)N)C(=O)N[C@@H](CC(=O)O)C(=O)N[C@@H](CCCCN)C(=O)N[C@H](C(=O)N[C@@H](CC(=O)O)C(=O)N[C@@H](Cc1ccccc1)C(=O)N[C@@H](C)C(=O)N[C@@H](CCCNC(=N)N)C(=O)N[C@@H](CCCNC(=N)N)C(=O)N[C@@H](CCCNC(=N)N)C(=O)N[C@@H](CCCNC(=N)N)C(=O)NCCCCCC(=O)NCCCCC(NC(=O)CCCCCNC(=O)[C@H](CCCNC(=N)N)NC(=O)[C@H](CCCNC(=N)N)NC(=O)[C@H](CCCNC(=N)N)NC(=O)[C@H](CCCNC(=N)N)NC(=O)[C@H](C)NC(=O)[C@H](Cc1ccccc1)NC(=O)[C@H](CC(=O)O)NC(=O)[C@@H](NC(=O)[C@H](CCCCN)NC(=O)[C@H](CC(=O)O)NC(=O)[C@H](CCCNC(=N)N)NC(=O)[C@H](CCCNC(=N)N)NC(=O)[C@H](C)NC(=O)[C@@H](N)CCSC)[C@@H](C)O)C(=O)NCCCCC(NC(=O)C(CCCCNC(=O)CCCCCNC(=O)[C@H](CCCNC(=N)N)NC(=O)[C@H](CCCNC(=N)N)NC(=O)[C@H](CCCNC(=N)N)NC(=O)[C@H](CCCNC(=N)N)NC(=O)[C@H](C)NC(=O)[C@H](Cc1ccccc1)NC(=O)[C@H](CC(=O)O)NC(=O)[C@@H](NC(=O)[C@H](CCCCN)NC(=O)[C@H](CC(=O)O)NC(=O)[C@H](CCCNC(=N)N)NC(=O)[C@H](CCCNC(=N)N)NC(=O)[C@H](C)NC(=O)[C@@H](N)CCSC)[C@@H](C)O)NC(=O)CCCCCNC(=O)[C@H](CCCNC(=N)N)NC(=O)[C@H](CCCNC(=N)N)NC(=O)[C@H](CCCNC(=N)N)NC(=O)[C@H](CCCNC(=N)N)NC(=O)[C@H](C)NC(=O)[C@H](Cc1ccccc1)NC(=O)[C@H](CC(=O)O)NC(=O)[C@@H](NC(=O)[C@H](CCCCN)NC(=O)[C@H](CC(=O)O)NC(=O)[C@H](CCCNC(=N)N)NC(=O)[C@H](CCCNC(=N)N)NC(=O)[C@H](C)NC(=O)[C@@H](N)CCSC)[C@@H](C)O)C(N)=O)[C@@H](C)O (stereo partly shown),,"C57BL/6 mouse female, uterus","dose not given, 6 h",baseline: total,tissue distribution,1.27% and 1.59% and 1.13%
CCCCCCCCCCCCCCCC(=O)N[C@@H](CCC(=O)NCCOCCOCCC(=O)NCCOCCOCCC(=O)NCCCC[C@H](NC(=O)[C@H](CC(=O)O)NC(=O)[C@H](CC(C)C)NC(=O)[C@H](Cc1ccc(O)cc1)NC(=O)[C@H](CCCCN)NC(=O)[C@H](CO)NC(=O)[C@H](Cc1ccc(O)cc1)NC(=O)[C@H](CC(=O)O)NC(=O)[C@H](CO)NC(=O)[C@@H](NC(=O)[C@H](Cc1ccccc1)NC(=O)[C@@H](NC(=O)CNC(=O)[C@H](CCC(N)=O)NC(=O)[C@@H](CO)NC(=O)[C@@H](N)Cc1c[nH]cn1)[C@@H](C)O)[C@@H](C)O)C(=O)N[C@@H](CCCNC(=N)N)C(=O)N[C@@H](CCCNC(=N)N)C(=O)N[C@@H](C)C(=O)N[C@@H](CCC(N)=O)C(=O)N[C@@H](CC(=O)O)C(=O)N[C@@H](Cc1ccccc1)C(=O)N[C@H](C(=O)N[C@@H](CCC(N)=O)C(=O)N[C@@H](Cc1c[nH]c2ccccc12)C(=O)N[C@@H](CC(C)C)C(=O)N[C@@H](CC(C)C)C(=O)N[C@@H](CC(N)=O)C(=O)N[C@H](C(=O)NCC(=O)NCC(=O)N1CCC[C@H]1C(=O)N[C@@H](CO)C(=O)N[C@@H](CO)C(=O)NCC(=O)N[C@@H](C)C(=O)N1CCC[C@H]1C(=O)N1CCC[C@H]1C(=O)N1CCC[C@H]1C(=O)N[C@@H](CO)C(N)=O)[C@@H](C)O)C(C)C)C(=O)O,,rhesus monkeys,"intravenous, 15.3 µg/kg single",,Vss,0.0379 ± 0.00347 L/kg
CC[C@H](C)[C@H](NC(=O)[C@H](CCCCN)NC(=O)CNC(=O)[C@H](CC(C)C)NC(=O)[C@H](Cc1ccccc1)NC(=O)[C@H](CCCCN)NC(=O)[C@H](CO)NC(=O)[C@H](Cc1ccccc1)NC(=O)[C@H](Cc1c[nH]c2ccccc12)NC(=O)[C@H](CCC(N)=O)NC(=O)[C@@H](NC(=O)[C@H](Cc1ccccc1)NC(=O)CCCCCNC(=O)CN1CCN(CC(=O)O)CCN(CC(=O)O)CCN(CC(=O)O)CC1)C(C)C)C(=O)N[C@@H](CCC(=O)O)C(=O)N1CCC[C@H]1C(=O)N[C@@H](CC(=O)O)C(=O)N[C@H](C(=O)N[C@@H](CO)C(=O)N[C@@H](CCC(N)=O)C(=O)N[C@H](C(=O)N[C@@H](CCC(N)=O)C(=O)N[C@@H](CC(=O)O)C(=O)N1CCC[C@H]1C(=O)N[C@@H](CC(N)=O)C(=O)N[C@@H](CC(=O)O)C(=O)N[C@@H](CCC(N)=O)C(=O)N[C@@H](Cc1ccc(O)cc1)C(=O)N[C@@H](CCC(=O)O)C(=O)N1CCC[C@H]1C(=O)N[C@@H](Cc1ccccc1)C(=O)O)C(C)C)C(C)C [copper-64 labelled],,"C57BL/6 male mouse, tumour-naive, bone",24 h,,tissue uptake,1.29 ± 0.1 %ID/g
COc1cc2ncnc(Oc3ccc(Nc4nccc5[nH]cc(-c6ccc(F)cc6)c(=O)c45)cc3F)c2cc1OC,,Sprague-Dawley rat,"oral, 100 mg/kg once daily, 28 days",baseline: vehicle,body weight gain,70%
O=C1NC2(CC2)COc2ncc(F)cc2[C@H]2COCCN2c2ccn3ncc1c3n2,,"Sprague-Dawley rat, female","oral, 10 mg/kg/day, end of treatment, 4-week repeated-dose toxicity",,body weight,337 ± 36.8 g
CCOc1ccccc1-n1c(CN2CCNCC2)nc2ccccc2c1=O,,"C57BL/6 mouse, male, plasma","intraperitoneal, 3 mg/kg",,AUC(0-t),1.11 µM·h
C/C(=N\OCCCN1CCCCC1)c1ccc(C(F)(F)F)cc1,,"mouse, plasma","oral, 75 mg/kg twice daily, day 1",,AUC(0-t),5950 ± 925 ng·h/mL
CC(=O)NCCCC[C@@H]1NC(=O)[C@H](Cc2c[nH]c3c(C)cccc23)NC(=O)[C@H]([C@@H](C)O)NC(=O)[C@H](CC(N)=O)NC(=O)[C@@H](NC(C)=O)C(C)(C)SSC(C)(C)[C@@H](C(=O)N[C@@H](Cc2ccc(OCCN)cc2)C(=O)N[C@@H](Cc2ccc3ccccc3c2)C(=O)NC2(C(=O)N[C@@H](CCC(=O)O)C(=O)N[C@@H](CC(N)=O)C(=O)N[C@@H](Cc3cccnc3)C(=O)N(C)CC(N)=O)CCOCC2)NC1=O,,plasma,"up to 16 h, 37 °C",,plasma stability,stable
CN1Cc2cc(Cl)ccc2-n2c(nnc2C2CCN(c3cccc(F)n3)CC2)C1,,"Sprague-Dawley rats male, striatum","intravenous, 0.03 mg/kg, 5 min",,concentration,8.78 ± 1.93 ng/mL
